Measurements of several laboratories.

Structure (SMILES) = O=C(O)c1ccccc1; assay = binding, equilibrium dialysis LC-MS; conditions = 5 µM, thermostabilized A2AR-BRIL construct; scale = baseline: no-protein control, direction not given; quantity = z-scored log2 fold change; result = 0.203
Structure (SMILES) = O=C(NOCC1CC1)c1ccc(F)c(F)c1Nc1ccc(I)cc1Cl; tested on = iCell Cardiomyocytes (hiPSC-derived); assay = xCELLigence Cardio impedance; conditions = concentration not given, 2 h; scale = baseline: control; quantity = beat rate; result = 103%
Structure (SMILES) = COc1cc(Nc2ncc(F)c(Nc3ccc4c(n3)N(COP(=O)(O)O)C(=O)C(C)(C)O4)n2)cc(OC)c1OC; tested on = NLRP3 inflammasome (mouse); system = mouse BMDM; conditions = 10 µM; quantity = inhibition; result = 29.2%
Structure (SMILES) = NC(=O)C1=CN([C@@H]2O[C@H](COP(=O)(O)OP(=O)(O)OC[C@H]3O[C@@H](n4cnc5c(N)ncnc54)[C@H](OP(=O)(O)O)[C@@H]3O)[C@@H](O)[C@H]2O)C=CC1; assay = binding, equilibrium dialysis LC-MS; conditions = 5 µM, thermostabilized A2AR-BRIL construct; scale = baseline: no-protein control, direction not given; quantity = z-scored log2 fold change; result = -0.937
Structure (SMILES) = CC1(C)CNc2cc(NC(=O)c3cccnc3NCc3ccncc3)ccc21; tested on = iCell Cardiomyocytes (hiPSC-derived); assay = cellular impedance; conditions = concentration not given, 24 h; scale = baseline: control; quantity = cell index; result = 102%
Structure (SMILES) = C[C@H](O)[C@@H](O)[C@@H](O)[C@H](O)C(=O)O; assay = binding, equilibrium dialysis LC-MS; conditions = 5 µM, thermostabilized A2AR-BRIL construct; scale = baseline: no-protein control, direction not given; quantity = z-scored log2 fold change; result = 0.463
Structure (SMILES) = Nc1cc(C(F)(F)F)c(-c2cc(N3CCOCC3)nc(N3CCOCC3)n2)cn1; tested on = NLRP3 inflammasome (mouse); system = mouse BMDM; conditions = 10 µM; quantity = inhibition; result = 18.2%
Structure (SMILES) = O=c1[nH]c(=O)c2[nH]c(=O)[nH]c2[nH]1; assay = binding, equilibrium dialysis LC-MS; conditions = 5 µM, thermostabilized A2AR-BRIL construct; scale = baseline: no-protein control, direction not given; quantity = z-scored log2 fold change; result = 0.318
Structure (SMILES) = CS(=O)(=O)N1CCN(Cc2cc3nc(-c4cccc5[nH]ncc45)nc(N4CCOCC4)c3s2)CC1; tested on = iCell Cardiomyocytes (hiPSC-derived); assay = cellular impedance; conditions = concentration not given, 24 h; scale = baseline: control; quantity = cell index; result = 87.5%
Structure (SMILES) = COc1cnc2cccc(N3CCc4c(cc(Cn5ccnc5C)cc4-c4cn(C)nc4C(F)(F)F)C3=O)c2c1; tested on = HCC1195; assay = cell growth; conditions = 120 h; quantity = EC50; result = > 30 µM
Structure (SMILES) = COc1ccc(-c2nc(N3CCOCC3)c3sc(CN(C)c4ncc(C(=O)NO)cn4)cc3n2)cn1; tested on = human alphaherpesvirus 1; system = K26 GFP, 3D skin equivalent, air-liquid; scale = baseline: CC50 over IC50; quantity = selectivity index; result = > 250
Structure (SMILES) = O=C(O)CC[C@@H](O)C(=O)O; assay = binding, equilibrium dialysis LC-MS; conditions = 5 µM, thermostabilized A2AR-BRIL construct; scale = baseline: no-protein control, direction not given; quantity = z-scored log2 fold change; result = 0.267
Structure (SMILES) = Cn1cc(-c2ccc(-c3cncc(Cl)c3N3CCC4(CCNC4=O)CC3)cc2)cn1; tested on = COLO 205; assay = gene expression, microarray, measured: CA9 mRNA; conditions = concentration not given, 2 h; scale = baseline: untreated cells; quantity = log2 fold change; result = -2.14
Structure (SMILES) = COCCNCc1ccc(-c2cc3nccc(Oc4ccc(NC(=O)C5(C(=O)Nc6ccc(F)cc6)CC5)cc4F)c3s2)nc1; tested on = NLRP3 inflammasome (mouse); system = mouse BMDM; conditions = 10 µM; quantity = inhibition; result = -16.4%
Structure (SMILES) = Cc1[nH]c(/C=C2\C(=O)Nc3ccc(S(=O)(=O)Cc4c(Cl)cccc4Cl)cc32)c(C)c1C(=O)N1CCC[C@@H]1CN1CCCC1; tested on = iCell Cardiomyocytes (hiPSC-derived); assay = xCELLigence Cardio impedance; conditions = concentration not given, 2 h; scale = baseline: control; quantity = beat rate; result = 70.5%
Structure (SMILES) = O=C(/C=C\n1cnc(-c2cc(C(F)(F)F)cc(C(F)(F)F)c2)n1)NNc1ccccn1; tested on = human alphaherpesvirus 1; system = primary human keratinocytes, K26 GFP; scale = baseline: CC50 over IC50; quantity = selectivity index; result = 3.95
Structure (SMILES) = NC(=O)c1cnc2[nH]ccc2c1N[C@@H]1[C@@H]2CC3C[C@H]1C[C@@](O)(C3)C2; assay = flow cytometry; system = Japanese healthy men, blood; conditions = oral, 30 mg twice daily, 72 h after day 7 dose; scale = baseline: baseline; quantity = CD8+ naive T-cell change; result = -0.77%
Structure (SMILES) = C=CC(=O)N1CCC[C@@H](n2nc(-c3ccc(Oc4ccccc4)cc3)c3c(N)ncnc32)C1; tested on = NLRP3 inflammasome (mouse); system = mouse BMDM; conditions = 10 µM; quantity = inhibition; result = -26.4%
Structure (SMILES) = COC(=O)[C@@H](CCSC)NCc1cc2ccccc2nc1SC; tested on = Pseudomonas aeruginosa; conditions = 32 µg/mL, together with: pentamidine 50 µM; scale = baseline: control; quantity = growth; result = 81%
Structure (SMILES) = C[C@@H]1O[C@H](OP(=O)(O)O)[C@@H](O)[C@H](O)[C@@H]1O; assay = binding, equilibrium dialysis LC-MS; conditions = 5 µM, thermostabilized A2AR-BRIL construct; scale = baseline: no-protein control, direction not given; quantity = z-scored log2 fold change; result = 0.39
Structure (SMILES) = Cc1cc(Nc2cc(CN3CCOCC3)c3nc(C)c(Cc4ccc(Cl)cc4F)n3n2)n[nH]1; tested on = NLRP3 inflammasome (mouse); system = mouse BMDM; conditions = 10 µM; quantity = inhibition; result = -8.41%

Repeated from above:
Structure (SMILES) = Cc1cc(Nc2cc(CN3CCOCC3)c3nc(C)c(Cc4ccc(Cl)cc4F)n3n2)n[nH]1; tested on = NLRP3 inflammasome (mouse); system = mouse BMDM; conditions = 10 µM; quantity = inhibition; result = -8.41%
Structure (SMILES) = Nc1cc(C(F)(F)F)c(-c2cc(N3CCOCC3)nc(N3CCOCC3)n2)cn1; tested on = NLRP3 inflammasome (mouse); system = mouse BMDM; conditions = 10 µM; quantity = inhibition; result = 18.2%
Structure (SMILES) = C[C@@H]1O[C@H](OP(=O)(O)O)[C@@H](O)[C@H](O)[C@@H]1O; assay = binding, equilibrium dialysis LC-MS; conditions = 5 µM, thermostabilized A2AR-BRIL construct; scale = baseline: no-protein control, direction not given; quantity = z-scored log2 fold change; result = 0.39
